Assay results gathered from unrelated publications.
Each numbered part is a random draw from the data of one study; scales do not carry over between parts.
Sequence of UniProt P49759 (whole entry, looked up): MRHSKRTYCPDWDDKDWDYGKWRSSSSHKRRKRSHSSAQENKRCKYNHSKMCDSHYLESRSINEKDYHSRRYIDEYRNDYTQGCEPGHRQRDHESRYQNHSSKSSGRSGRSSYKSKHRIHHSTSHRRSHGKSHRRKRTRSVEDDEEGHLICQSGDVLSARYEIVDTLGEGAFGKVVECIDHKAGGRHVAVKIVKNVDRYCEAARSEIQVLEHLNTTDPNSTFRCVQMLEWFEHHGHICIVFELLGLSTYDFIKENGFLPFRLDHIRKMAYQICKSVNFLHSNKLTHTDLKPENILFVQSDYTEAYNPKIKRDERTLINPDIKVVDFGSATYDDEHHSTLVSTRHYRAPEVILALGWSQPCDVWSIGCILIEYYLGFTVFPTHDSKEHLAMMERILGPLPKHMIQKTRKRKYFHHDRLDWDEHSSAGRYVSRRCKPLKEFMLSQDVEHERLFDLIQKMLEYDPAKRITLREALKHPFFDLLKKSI
Sequence of UniProt P00519 (whole entry, looked up): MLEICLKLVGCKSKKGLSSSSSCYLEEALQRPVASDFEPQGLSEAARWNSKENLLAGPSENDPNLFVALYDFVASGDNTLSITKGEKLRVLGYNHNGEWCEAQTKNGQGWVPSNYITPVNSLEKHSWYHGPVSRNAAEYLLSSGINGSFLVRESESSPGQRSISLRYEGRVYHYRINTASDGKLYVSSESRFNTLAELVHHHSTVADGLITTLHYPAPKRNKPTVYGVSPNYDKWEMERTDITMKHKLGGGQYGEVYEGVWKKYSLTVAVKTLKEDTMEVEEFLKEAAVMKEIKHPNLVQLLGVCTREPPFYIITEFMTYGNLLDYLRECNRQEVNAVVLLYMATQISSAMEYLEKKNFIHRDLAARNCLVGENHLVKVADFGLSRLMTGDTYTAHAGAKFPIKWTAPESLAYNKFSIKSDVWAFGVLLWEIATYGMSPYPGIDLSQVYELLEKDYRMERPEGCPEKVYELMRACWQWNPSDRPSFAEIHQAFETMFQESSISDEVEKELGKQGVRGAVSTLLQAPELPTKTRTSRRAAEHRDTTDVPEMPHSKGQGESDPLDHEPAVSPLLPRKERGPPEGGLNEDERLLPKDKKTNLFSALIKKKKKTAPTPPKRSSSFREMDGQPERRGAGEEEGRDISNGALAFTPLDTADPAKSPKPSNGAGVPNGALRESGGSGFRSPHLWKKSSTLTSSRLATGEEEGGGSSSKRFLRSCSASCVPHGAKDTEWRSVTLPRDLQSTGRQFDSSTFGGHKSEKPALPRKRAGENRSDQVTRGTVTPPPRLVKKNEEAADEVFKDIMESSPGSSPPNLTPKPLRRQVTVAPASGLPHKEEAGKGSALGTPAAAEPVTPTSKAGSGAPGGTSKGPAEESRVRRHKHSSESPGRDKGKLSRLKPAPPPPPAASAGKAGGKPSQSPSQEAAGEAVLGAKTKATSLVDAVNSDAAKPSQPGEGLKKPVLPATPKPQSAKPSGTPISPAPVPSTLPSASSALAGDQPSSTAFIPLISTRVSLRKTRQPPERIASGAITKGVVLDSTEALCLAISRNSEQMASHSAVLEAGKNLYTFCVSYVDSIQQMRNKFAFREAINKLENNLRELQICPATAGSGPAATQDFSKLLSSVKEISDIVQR
Sequence of UniProt Q99558 (whole entry, looked up): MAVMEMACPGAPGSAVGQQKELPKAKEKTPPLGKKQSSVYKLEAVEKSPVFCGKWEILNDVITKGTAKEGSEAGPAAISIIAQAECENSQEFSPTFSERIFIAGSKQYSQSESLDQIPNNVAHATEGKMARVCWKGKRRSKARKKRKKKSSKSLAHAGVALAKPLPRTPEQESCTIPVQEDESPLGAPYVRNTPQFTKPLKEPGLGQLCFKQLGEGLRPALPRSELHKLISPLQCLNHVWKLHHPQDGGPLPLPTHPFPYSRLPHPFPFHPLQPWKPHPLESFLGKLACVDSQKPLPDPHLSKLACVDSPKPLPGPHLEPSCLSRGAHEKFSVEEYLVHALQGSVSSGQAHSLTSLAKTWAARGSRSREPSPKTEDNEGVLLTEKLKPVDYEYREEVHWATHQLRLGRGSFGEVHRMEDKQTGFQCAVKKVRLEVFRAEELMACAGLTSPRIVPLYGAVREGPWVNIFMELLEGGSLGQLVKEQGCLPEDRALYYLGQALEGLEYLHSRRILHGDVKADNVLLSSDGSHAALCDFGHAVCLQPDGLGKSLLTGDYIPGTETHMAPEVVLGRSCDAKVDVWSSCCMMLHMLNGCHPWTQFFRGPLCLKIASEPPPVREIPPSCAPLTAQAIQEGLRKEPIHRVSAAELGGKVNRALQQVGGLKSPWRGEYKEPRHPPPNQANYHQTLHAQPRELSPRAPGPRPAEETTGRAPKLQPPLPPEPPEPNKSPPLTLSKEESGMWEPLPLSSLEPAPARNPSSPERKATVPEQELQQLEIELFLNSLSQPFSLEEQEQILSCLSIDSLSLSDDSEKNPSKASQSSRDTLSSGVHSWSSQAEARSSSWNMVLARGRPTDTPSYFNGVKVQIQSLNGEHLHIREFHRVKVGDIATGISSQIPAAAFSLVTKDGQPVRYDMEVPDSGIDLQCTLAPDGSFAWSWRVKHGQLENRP
Sequence of UniProt Q9UQ88 (whole entry, looked up): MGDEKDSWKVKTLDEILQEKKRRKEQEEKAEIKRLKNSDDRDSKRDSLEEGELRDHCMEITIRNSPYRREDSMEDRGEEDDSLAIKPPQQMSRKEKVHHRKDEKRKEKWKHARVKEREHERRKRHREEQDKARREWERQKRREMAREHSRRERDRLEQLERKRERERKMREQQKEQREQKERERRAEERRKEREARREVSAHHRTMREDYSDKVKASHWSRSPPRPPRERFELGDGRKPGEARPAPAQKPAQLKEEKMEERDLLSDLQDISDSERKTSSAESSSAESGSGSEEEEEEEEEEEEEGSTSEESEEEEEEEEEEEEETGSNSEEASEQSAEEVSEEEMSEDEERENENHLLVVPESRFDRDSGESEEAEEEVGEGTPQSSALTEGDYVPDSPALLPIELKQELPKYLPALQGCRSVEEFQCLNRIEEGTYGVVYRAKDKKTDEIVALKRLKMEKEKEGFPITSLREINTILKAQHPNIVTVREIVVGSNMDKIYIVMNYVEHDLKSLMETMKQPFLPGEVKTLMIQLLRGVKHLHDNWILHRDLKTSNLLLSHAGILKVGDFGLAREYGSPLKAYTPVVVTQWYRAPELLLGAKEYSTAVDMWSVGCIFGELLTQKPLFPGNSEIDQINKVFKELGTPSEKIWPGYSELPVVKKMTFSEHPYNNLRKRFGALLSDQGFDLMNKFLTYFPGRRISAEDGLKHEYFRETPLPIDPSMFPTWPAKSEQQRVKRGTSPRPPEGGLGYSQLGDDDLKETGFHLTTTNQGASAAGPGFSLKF

Block 1 — method: competition with immobilised ligand; tested at: 1 µM
Compound: COc1ccc2c(c1)O[C@@H](c1ccc(OC)c(OC)c1)C[C@H]2NC(=O)C1(c2ccc3c(c2)OC(F)(F)O3)CC1
For CDK11A (Homo sapiens, UniProt Q9UQ88); binding: remaining binding read 100%.
For AXL (Homo sapiens, UniProt P30530); cell-free assay: remaining binding read 100%.
The remaining binding was 87% (MAP3K14 (Homo sapiens, UniProt Q99558); cell-free assay).
Receptor-type tyrosine-protein kinase FLT3, autoinhibited (FLT3, Homo sapiens, UniProt P36888); cell-free assay — remaining binding: 80%.
The remaining binding was 100% (CLK1 (Homo sapiens, UniProt P49759); cell-free assay).
It gave 80% for remaining binding (Tyrosine-protein kinase ABL1, phosphorylated (ABL1, Homo sapiens, UniProt P00519); cell-free assay).

Block 2 — cell line: mouse MPNST tumor cells; method: high-content immunofluorescence imaging; item: nuclear SOX9; tested at: 10 µM; time: 12 h; setting: mean of 2 replicates; relative to: DMSO control; direction: higher = more nuclear SOX9
Under “nuclear SOX9 intensity”, `O=C(NC[C@H](O)CN1CCc2ccccc2C1)c1cc(NC2COC2)ncn1` is recorded as 106 % of DMSO.
`Cc1nnn(-c2ccc(-c3ccc(C4(C(=O)O)CC4)cc3)cc2)c1NC(=O)O[C@H](C)c1ccccc1`: “nuclear SOX9 intensity” 79.2 % of DMSO.
`CN1CCCN=C1COC(=O)C(O)(c1ccccc1)C1CCCCC1` (stereo not drawn): “nuclear SOX9 intensity” 96.8 % of DMSO.
`COc1cc(Br)c(S(=O)(=O)Nc2ccc(C(F)(F)F)c(OC3CCN(C)C3)c2)cc1OC` (stereo not drawn): “nuclear SOX9 intensity” 115 % of DMSO.

Block 3 — read-out: enzyme activity; action: inhibitor; tested at: 0.5 µM; relative to: control
Target: Tyrosine-protein kinase Lyn, isoform B (LYN, Homo sapiens, UniProt P07948)
Sequence of UniProt P07948 (whole entry, looked up): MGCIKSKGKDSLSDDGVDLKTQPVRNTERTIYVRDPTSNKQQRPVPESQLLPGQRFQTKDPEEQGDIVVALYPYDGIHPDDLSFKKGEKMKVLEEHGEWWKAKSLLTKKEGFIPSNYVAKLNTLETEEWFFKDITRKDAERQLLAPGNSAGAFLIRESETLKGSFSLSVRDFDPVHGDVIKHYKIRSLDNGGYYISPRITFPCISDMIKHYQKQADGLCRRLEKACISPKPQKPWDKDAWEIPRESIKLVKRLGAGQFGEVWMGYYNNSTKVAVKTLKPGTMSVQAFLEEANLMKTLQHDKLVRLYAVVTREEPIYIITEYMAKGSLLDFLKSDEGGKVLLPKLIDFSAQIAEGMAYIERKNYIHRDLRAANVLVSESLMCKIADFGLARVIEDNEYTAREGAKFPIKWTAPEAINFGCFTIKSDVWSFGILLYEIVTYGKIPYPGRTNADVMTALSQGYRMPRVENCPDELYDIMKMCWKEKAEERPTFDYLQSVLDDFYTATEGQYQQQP
`Cn1sc(=O)n(Cc2ccccc2)c1=O` has a remaining activity of 98.9%.
With `C#Cc1cccc(Nc2ncnc3cc(OCCOC)c(OCCOC)cc23)c1` the remaining activity was 75.4%.
For `COc1cc2ncnc(Nc3ccc(Oc4ccccc4)cc3)c2cc1OC`, the remaining activity was 42.6%.
`N#CCCc1ccc2c(c1)-c1[nH]c3ccc([N+](=O)[O-])cc3c1CC(=O)N2` has a remaining activity of 77.7%.
The remaining activity of `O=C1NC(=O)C(c2cn(CCCO)c3ncccc23)=C1c1cnccn1` is reported as 101%.
`Cc1ccc(NC(=O)c2ccc(CN3CCN(C)CC3)cc2)cc1Nc1nc(-c2cccnc2)cs1` gave a remaining activity of 18.7%.
`OCC(O)CCON=C1C(c2c(O)[nH]c3ccccc23)=Nc2ccccc21` (stereo not drawn) gave a remaining activity of 45.5%.
With `COc1cc2ncnc(Nc3ccc(F)c(Cl)c3)c2cc1OCCCN1CCOCC1` the remaining activity was 67.8%.
`Cn1c2ccccc2c2c3c(c4c5ccccc5n(CCC#N)c4c21)CNC3=O` has a remaining activity of 90.3%.
`O=C1NC(=O)c2cc(Nc3ccc(F)cc3)c(Nc3ccc(F)cc3)cc21` has a remaining activity of 97.8%.
For `COc1ccc(OC)c2c(=S)c3ccccc3[nH]c12`, the remaining activity was 96.9%.
The remaining activity of `COc1cc2nccc(Oc3ccc(NC(=S)NC(=O)c4ccccc4C)cc3)c2cc1OC` is reported as 31.8%.

Mixed results — cell line: A-375; tested at: 100 µM; time: 60 h
With `CO/N=C(\C(=O)N[C@@H]1C(=O)N2C(C(=O)O)=C(COC(N)=O)CS[C@H]12)c1ccco1` the viability was 109%.
`Cc1ccc(NC(=O)c2ccc(CN3CCN(C)CC3)cc2)cc1Nc1nc(-c2cccnc2)cs1` gave a viability of 5.2%.
